{"data": "Results from different studies", "note": "Numbered parts are unrelated; each lists some results of a single study.", "chain of UniProt P08631 (whole entry, looked up)": "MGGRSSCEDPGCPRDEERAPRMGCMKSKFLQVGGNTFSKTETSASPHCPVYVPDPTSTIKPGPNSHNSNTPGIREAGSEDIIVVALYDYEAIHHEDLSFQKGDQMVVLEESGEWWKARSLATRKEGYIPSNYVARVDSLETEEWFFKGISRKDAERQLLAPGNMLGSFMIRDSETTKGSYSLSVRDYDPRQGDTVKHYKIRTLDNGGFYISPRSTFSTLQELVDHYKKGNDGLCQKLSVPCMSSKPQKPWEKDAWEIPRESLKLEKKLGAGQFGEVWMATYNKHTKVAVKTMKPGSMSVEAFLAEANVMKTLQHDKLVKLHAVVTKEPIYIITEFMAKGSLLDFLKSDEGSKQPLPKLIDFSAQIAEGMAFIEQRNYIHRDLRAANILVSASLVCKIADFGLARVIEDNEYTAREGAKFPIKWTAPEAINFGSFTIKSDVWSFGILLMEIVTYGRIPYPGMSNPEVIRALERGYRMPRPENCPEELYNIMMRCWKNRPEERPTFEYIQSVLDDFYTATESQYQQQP", "chain of UniProt Q96L34 (whole entry, looked up)": "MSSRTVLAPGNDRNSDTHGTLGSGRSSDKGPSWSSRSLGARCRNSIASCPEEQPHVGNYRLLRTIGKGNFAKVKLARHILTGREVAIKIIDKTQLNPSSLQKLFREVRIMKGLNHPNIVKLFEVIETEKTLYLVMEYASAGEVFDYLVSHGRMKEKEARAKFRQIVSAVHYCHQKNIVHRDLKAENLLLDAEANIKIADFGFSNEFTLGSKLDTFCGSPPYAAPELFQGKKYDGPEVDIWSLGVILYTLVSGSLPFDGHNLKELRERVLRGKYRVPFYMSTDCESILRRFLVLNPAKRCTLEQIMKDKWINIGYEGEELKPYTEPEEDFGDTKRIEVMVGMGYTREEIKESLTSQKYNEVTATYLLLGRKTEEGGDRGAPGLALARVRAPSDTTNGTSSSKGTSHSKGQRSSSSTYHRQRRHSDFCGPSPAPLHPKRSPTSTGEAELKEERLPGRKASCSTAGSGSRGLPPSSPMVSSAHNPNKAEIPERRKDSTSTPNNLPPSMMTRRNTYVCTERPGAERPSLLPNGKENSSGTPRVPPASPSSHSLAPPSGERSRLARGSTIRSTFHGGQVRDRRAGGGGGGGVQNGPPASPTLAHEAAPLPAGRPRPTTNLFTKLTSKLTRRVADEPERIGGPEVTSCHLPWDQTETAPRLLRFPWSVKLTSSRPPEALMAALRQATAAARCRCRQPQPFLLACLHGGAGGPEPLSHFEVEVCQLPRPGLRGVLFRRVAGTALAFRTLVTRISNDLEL", "chain of UniProt P29597 (whole entry, looked up)": "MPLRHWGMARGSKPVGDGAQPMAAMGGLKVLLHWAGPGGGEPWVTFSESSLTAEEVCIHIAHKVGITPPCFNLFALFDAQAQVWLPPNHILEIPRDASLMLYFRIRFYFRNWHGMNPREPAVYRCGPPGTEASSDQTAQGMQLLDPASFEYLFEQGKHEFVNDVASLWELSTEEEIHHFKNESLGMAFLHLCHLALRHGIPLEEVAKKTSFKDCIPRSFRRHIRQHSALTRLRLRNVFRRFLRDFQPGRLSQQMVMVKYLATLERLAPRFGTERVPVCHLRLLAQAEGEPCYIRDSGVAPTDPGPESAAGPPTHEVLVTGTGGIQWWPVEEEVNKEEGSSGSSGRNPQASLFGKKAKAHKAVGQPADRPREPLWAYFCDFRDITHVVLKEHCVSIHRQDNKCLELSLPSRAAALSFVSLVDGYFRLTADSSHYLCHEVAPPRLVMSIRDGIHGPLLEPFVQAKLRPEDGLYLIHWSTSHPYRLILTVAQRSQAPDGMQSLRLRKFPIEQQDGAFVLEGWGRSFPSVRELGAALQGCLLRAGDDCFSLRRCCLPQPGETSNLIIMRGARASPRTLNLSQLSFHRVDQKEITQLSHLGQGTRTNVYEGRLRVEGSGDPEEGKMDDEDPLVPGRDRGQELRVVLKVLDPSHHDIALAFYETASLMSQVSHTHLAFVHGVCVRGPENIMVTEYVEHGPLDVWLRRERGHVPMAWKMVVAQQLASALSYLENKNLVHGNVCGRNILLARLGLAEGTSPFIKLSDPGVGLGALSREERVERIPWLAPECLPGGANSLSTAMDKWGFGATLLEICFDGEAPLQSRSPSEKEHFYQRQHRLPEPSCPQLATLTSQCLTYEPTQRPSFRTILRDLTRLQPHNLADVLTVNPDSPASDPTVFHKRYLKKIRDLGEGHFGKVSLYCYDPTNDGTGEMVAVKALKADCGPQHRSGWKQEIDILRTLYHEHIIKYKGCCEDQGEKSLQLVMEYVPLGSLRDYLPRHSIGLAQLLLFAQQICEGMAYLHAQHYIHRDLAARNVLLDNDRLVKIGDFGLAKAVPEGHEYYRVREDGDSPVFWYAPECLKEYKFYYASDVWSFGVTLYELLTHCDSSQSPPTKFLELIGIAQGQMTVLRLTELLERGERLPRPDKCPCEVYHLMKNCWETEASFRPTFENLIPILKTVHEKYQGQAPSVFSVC", "chain of UniProt Q13873 (whole entry, looked up)": "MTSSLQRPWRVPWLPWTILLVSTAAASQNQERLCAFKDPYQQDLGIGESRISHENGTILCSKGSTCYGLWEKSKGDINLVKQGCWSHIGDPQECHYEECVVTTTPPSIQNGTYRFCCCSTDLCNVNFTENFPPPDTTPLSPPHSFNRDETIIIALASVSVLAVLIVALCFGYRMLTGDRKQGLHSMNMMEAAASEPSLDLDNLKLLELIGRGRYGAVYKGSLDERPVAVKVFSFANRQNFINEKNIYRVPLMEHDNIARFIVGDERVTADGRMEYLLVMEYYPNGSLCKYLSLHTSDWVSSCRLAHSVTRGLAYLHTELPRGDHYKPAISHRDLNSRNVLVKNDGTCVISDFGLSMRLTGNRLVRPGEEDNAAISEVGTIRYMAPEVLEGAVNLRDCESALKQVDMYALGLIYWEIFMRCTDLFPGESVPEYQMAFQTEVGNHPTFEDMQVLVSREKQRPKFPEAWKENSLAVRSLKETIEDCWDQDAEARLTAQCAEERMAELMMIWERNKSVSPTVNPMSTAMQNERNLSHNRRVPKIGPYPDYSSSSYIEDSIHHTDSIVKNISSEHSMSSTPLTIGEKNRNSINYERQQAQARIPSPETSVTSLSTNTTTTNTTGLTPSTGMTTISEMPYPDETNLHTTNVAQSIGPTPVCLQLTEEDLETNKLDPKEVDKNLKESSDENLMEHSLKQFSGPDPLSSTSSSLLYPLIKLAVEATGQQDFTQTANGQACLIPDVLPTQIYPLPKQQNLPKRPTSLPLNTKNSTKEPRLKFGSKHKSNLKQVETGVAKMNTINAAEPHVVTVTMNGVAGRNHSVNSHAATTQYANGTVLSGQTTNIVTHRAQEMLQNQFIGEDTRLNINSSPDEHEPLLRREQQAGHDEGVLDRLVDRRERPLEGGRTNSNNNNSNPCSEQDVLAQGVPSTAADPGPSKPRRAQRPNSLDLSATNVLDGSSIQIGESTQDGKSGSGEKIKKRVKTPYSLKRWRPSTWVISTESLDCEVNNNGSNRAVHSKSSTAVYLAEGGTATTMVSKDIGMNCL", "chain of UniProt O94804 (whole entry, looked up)": "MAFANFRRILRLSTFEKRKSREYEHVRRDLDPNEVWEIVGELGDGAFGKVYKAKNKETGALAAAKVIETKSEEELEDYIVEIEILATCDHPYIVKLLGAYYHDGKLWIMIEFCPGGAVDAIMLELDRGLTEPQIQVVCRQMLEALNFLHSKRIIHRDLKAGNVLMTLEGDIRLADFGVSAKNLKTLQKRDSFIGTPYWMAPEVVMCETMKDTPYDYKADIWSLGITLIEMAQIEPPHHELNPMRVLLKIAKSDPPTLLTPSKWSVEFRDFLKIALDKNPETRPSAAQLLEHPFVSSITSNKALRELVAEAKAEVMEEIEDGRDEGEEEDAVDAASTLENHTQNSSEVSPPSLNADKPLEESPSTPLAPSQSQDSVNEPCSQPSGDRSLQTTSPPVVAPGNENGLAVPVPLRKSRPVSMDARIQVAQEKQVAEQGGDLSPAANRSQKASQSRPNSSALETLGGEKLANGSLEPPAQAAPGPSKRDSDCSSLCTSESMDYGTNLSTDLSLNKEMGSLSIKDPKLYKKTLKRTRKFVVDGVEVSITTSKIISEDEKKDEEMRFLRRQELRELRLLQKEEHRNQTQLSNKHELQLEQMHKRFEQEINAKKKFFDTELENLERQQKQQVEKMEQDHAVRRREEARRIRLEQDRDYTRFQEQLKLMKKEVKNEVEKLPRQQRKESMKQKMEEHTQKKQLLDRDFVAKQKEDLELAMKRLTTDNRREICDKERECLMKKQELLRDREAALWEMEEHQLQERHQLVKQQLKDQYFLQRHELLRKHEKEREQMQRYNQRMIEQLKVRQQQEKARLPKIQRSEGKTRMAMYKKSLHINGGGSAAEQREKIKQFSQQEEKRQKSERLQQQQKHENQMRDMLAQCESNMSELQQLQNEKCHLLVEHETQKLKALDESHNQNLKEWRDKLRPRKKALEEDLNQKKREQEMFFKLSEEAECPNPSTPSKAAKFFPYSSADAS"}
{"data": "Sample 1", "Compound": "Cc1nc(Cc2cccc(C(F)(F)F)c2)sc1-c1ccc(C(N)=O)nc1", "read-out": "cell-free assay", "method": "competition with immobilised ligand", "tested at": "1 µM"}
{"target": "MAP3K19 (Homo sapiens, UniProt Q56UN5)", "remaining binding": "100%"}
{"target": "WNK3 (Homo sapiens, UniProt Q9BYP7)", "remaining binding": "61%"}
{"target": "Non-receptor tyrosine-protein kinase TYK2, JH1 (TYK2, Homo sapiens, UniProt P29597)", "remaining binding": "100%"}
{"target": "TTK (Homo sapiens, UniProt P33981)", "remaining binding": "82%"}
{"target": "MET (Homo sapiens, UniProt P08581, M1250T)", "remaining binding": "92%"}
{"target": "MAP3K15 (Homo sapiens, UniProt Q6ZN16)", "remaining binding": "100%"}
{"target": "Receptor-type tyrosine-protein kinase FLT3, autoinhibited (FLT3, Homo sapiens, UniProt P36888)", "remaining binding": "93%"}
{"target": "SRPK1 (Homo sapiens, UniProt Q96SB4)", "remaining binding": "75%"}
{"target": "SRC (Homo sapiens, UniProt P12931)", "remaining binding": "80%"}
{"target": "BMPR2 (Homo sapiens, UniProt Q13873)", "remaining binding": "100%"}
{"target": "TAOK3 (Homo sapiens, UniProt Q9H2K8)", "remaining binding": "83%"}
{"target": "DYRK1B (Homo sapiens, UniProt Q9Y463)", "remaining binding": "100%"}
{"target": "PIK3CA (Homo sapiens, UniProt P42336, E542K)", "remaining binding": "66%"}
{"target": "BMP2K (Homo sapiens, UniProt Q9NSY1)", "remaining binding": "100%"}
{"target": "FLT3 (Homo sapiens, UniProt P36888, D835H)", "remaining binding": "100%"}
{"target": "NEK3 (Homo sapiens, UniProt P51956)", "remaining binding": "100%"}
{"target": "ACVR1B (Homo sapiens, UniProt P36896)", "remaining binding": "75%"}
{"target": "MELK (Homo sapiens, UniProt Q14680)", "remaining binding": "100%"}
{"target": "HCK (Homo sapiens, UniProt P08631)", "remaining binding": "100%"}
{"target": "STK11 (Homo sapiens, UniProt Q15831)", "remaining binding": "100%"}
{"target": "STK10 (Homo sapiens, UniProt O94804)", "remaining binding": "100%"}
{"target": "CDK17 (Homo sapiens, UniProt Q00537)", "remaining binding": "83%"}
{"target": "MARK4 (Homo sapiens, UniProt Q96L34)", "remaining binding": "83%"}
{"target": "FLT3 (Homo sapiens, UniProt P36888, D835V/ITD)", "remaining binding": "100%"}
{"data": "Sample 2", "matrix": "hydrocarbon/water"}
{"Compound": "CCOC(=O)[C@@H]1CSCC(=O)N[C@@H](CC)C(=O)N(C)[C@@H](C)C(=O)N[C@@H](CC(C)C)C(=O)N2CCC[C@H]2C(=O)N(CC)CC(=O)N[C@@H](CC(C)C)C(=O)N(C)[C@H](C)C(=O)N[C@@H](CC(C)C)C(=O)N1C", "logD": -0.652}
{"Compound": "CCOC(=O)[C@@H]1CSCC(=O)N[C@H](CC)C(=O)N(CC(C)C)CC(=O)N[C@@H](CC(C)C)C(=O)N2CCC[C@@H]2C(=O)N(C)[C@@H](C)C(=O)N[C@H](CC(C)C)C(=O)N(C)[C@H](C)C(=O)N[C@@H](CC(C)C)C(=O)N1C", "logD": 0.791}
{"Compound": "CC(C)C[C@@H]1NC(=O)[C@H](C)N(C)C(=O)[C@H](CC2CCCCC2)NC(=O)[C@H](C)N(C)C(=O)[C@H]2CCCN2C(=O)[C@H](CC2CCCCC2)NC(=O)CN(CC(C)C)C(=O)[C@H](C2CCCCC2)NC(=O)Cn2cc(nn2)CN(C)C1=O", "logD": 2.67}
{"Compound": "CC(C)C[C@@H]1NC(=O)[C@H](C)N(C)C(=O)[C@H](CC2CCCCC2)NC(=O)[C@H](C)N(C)C(=O)[C@H]2CCCN2C(=O)[C@H](CC2CCCCC2)NC(=O)CN(CC(C)C)C(=O)[C@H](CC(C)C)NC(=O)Cn2cc(nn2)CN(C)C1=O", "logD": 2.26}
{"Compound": "CCC[C@@H]1NC(=O)[C@H](C)N(C)C(=O)[C@H](CC(C)C)NC(=O)Cn2cc(nn2)CN(C)C(=O)[C@H](CC(C)C)NC(=O)[C@H](C)N(C)C(=O)[C@H](CC)NC(=O)[C@H](CC)N(C)C(=O)[C@H]2CCCN2C1=O", "logD": -1.75}
{"Compound": "CCC[C@@H]1NC(=O)CSC[C@@H](C(=O)OCC)N(C)C(=O)[C@H](CC(C)C)NC(=O)[C@H](C)N(C)C(=O)[C@@H](CC(C)C)NC(=O)[C@H](C)N(C)C(=O)[C@@H]2CCCN2C(=O)[C@@H](CC(C)C)NC(=O)CN(CCC)C1=O", "logD": 1.33}
{"Compound": "CCC[C@H]1NC(=O)[C@H](CC(C)C)NC(=O)[C@H](Cc2ccccc2)NC(=O)[C@H]2CCCN2C(=O)[C@H](CC2CCCCC2)NC(=O)[C@H](CC2CCCCC2)NC1=O", "logD": 2.82}
{"Compound": "CCCCCN1CC(=O)N[C@@H](C)C(=O)N2CCC[C@@H]2C(=O)N(C)[C@@H](CC(C)C)C(=O)N[C@@H](C)C(=O)N(CCCOC(C)C)CC(=O)N[C@@H](CC(C)C)C(=O)N2CCC[C@@H]2C(=O)N(C)[C@@H](CC(C)C)C(=O)N[C@@H](C)C1=O", "logD": 1.97}
{"data": "Sample 3", "cell line": "A-375", "tested at": "100 µM", "time": "18 h"}
{"Compound": "CC(C(=O)O)c1ccc2c(c1)[nH]c1ccc(Cl)cc12 (stereo not shown)", "viability": "72.4%"}
{"Compound": "Clc1ccc(C(Cn2ccnc2)OCc2csc3c(Cl)cccc23)c(Cl)c1 (stereo not shown)", "viability": "10.4%"}
{"Compound": "C[C@]12CC[C@@H]3c4ccc(O)cc4CC[C@H]3[C@@H]1C[C@@H](O)[C@@H]2O", "viability": "71.2%"}
{"Compound": "CC(=O)OCC(=O)NCCCOc1cccc(CN2CCCCC2)c1", "viability": "89.8%"}
{"Compound": "COc1cc(C=O)ccc1O", "viability": "100%"}
{"Compound": "CNC[C@@H](O)c1ccc(O)c(O)c1", "viability": "96.8%"}
{"Compound": "CN(C)CCCN1c2ccccc2Sc2ccccc21", "viability": "7.89%"}
{"Compound": "Nc1ccc(O)c(C(=O)O)c1", "viability": "96.5%"}
{"Compound": "CC(=O)[C@H]1CC[C@H]2[C@@H]3C[C@H](C)C4=CC(=O)CC[C@]4(C)[C@H]3[C@@H](O)C[C@]12C", "viability": "65%"}
{"Compound": "O=C1CN(/N=C/c2ccc([N+](=O)[O-])o2)C(=O)N1", "viability": "79.3%"}
{"Compound": "CN(C)CCOC(=O)COc1ccc(Cl)cc1", "viability": "97.6%"}
{"Compound": "CC[C@H]1[C@@H](O)[C@@H]2[C@H](CC[C@]3(C)[C@@H]([C@H](C)CCC(=O)O)CC[C@@H]23)[C@@]2(C)CC[C@@H](O)C[C@@H]12", "viability": "30.3%"}
{"Compound": "CCNC(=O)CCC/C=C\\C[C@@H]1[C@@H](/C=C/[C@@H](O)CCc2ccccc2)[C@H](O)C[C@@H]1O", "viability": "108%"}
{"Compound": "COc1cc(/C=C/C(=O)O)ccc1O", "viability": "106%"}
{"data": "Sample 4", "target": "panel of 300 human kinases", "tested at": "0.5 µM", "reading": "higher = more selective"}
{"Compound": "Nc1[nH]nc2nc3ccccc3nc12", "Gini score": 0.57}
{"Compound": "COc1cc2c(Nc3ccc(Br)cc3F)ncnc2cc1OCC1CCN(C)CC1", "Gini score": 0.75}
{"Compound": "CC(C)(C)c1nc2c3cc[nH]c(=O)c3c3cc(F)ccc3c2[nH]1", "Gini score": 0.54}
{"Compound": "O=C(c1ccccc1)c1ccc(N2CCOCC2)cc1O", "Gini score": 0.72}
{"Compound": "O=C(O)c1ccc2c3c1cccc3c(=O)n1c3ccccc3nc21", "Gini score": 0.72}
{"Compound": "O=C1NC(=O)C(c2cn(CCCn3ccnc3)c3ccccc23)=C1Nc1ccccc1", "Gini score": 0.69}
{"Compound": "O=S(=O)(c1cccc2cnccc12)N1CCCNCC1", "Gini score": 0.63}
{"Compound": "Cc1ccc(NC(=O)c2ccc(CN3CCN(C)CC3)cc2)cc1Nc1nc(-c2cccnc2)cs1", "Gini score": 0.81}
{"Compound": "O=c1cc(N2CCNCC2)oc2c(-c3ccccc3)cccc12", "Gini score": 0.69}
{"Compound": "O=C(O)/C=C/c1cc(Br)c(Br)c(Br)c1Br", "Gini score": 0.6}
{"Compound": "COc1cc2ncnc(Nc3ccc(F)c(Cl)c3)c2cc1OCCCN1CCOCC1", "Gini score": 0.69}
{"Compound": "Nc1ncnc2n[nH]c(Nc3ccc(F)cc3)c12", "Gini score": 0.63}
{"Compound": "C#Cc1cccc(Nc2ncnc3cc(OCCOC)c(OCCOC)cc23)c1", "Gini score": 0.7}
{"Compound": "Cc1cccc(-c2[nH]c(C(C)(C)C)nc2-c2ccc3c(c2)OCO3)n1", "Gini score": 0.67}
{"Compound": "CN(C)c1ccc(C=C2C(=O)Nc3ccccc32)cc1", "Gini score": 0.72}
{"note": "A few entries again (sample 4):"}
{"Compound": "COc1cc2ncnc(Nc3ccc(F)c(Cl)c3)c2cc1OCCCN1CCOCC1", "Gini score": 0.69}
{"Compound": "COc1cc2c(Nc3ccc(Br)cc3F)ncnc2cc1OCC1CCN(C)CC1", "Gini score": 0.75}
{"Compound": "O=c1cc(N2CCNCC2)oc2c(-c3ccccc3)cccc12", "Gini score": 0.69}
{"Compound": "Cc1cccc(-c2[nH]c(C(C)(C)C)nc2-c2ccc3c(c2)OCO3)n1", "Gini score": 0.67}
{"Compound": "Cc1ccc(NC(=O)c2ccc(CN3CCN(C)CC3)cc2)cc1Nc1nc(-c2cccnc2)cs1", "Gini score": 0.81}
{"Compound": "O=C(O)c1ccc2c3c1cccc3c(=O)n1c3ccccc3nc21", "Gini score": 0.72}
